Published values gathered from unrelated publications.
Every numbered part comes from another study and shows a few of its results, in no order. Substitutions count along the parent as printed.

Block 1
Target: Interferon regulatory factor 7, full length, phosphomimetic (IRF7, Homo sapiens, UniProt Q92985, residues 1-503, S471D/S472D/S475D/S476D/S477D/S483D/S484D/S487D)
Technique: protein-binding microarray
Form: double-stranded DNA, one strand shown
Sample: in vitro
Tested at: 2200 nM top
Notes: 60-bp whole probe
With: salmon DNA 0.4 mg/ml
Baseline: random background probes
Direction: higher = stronger binding
Shared flanks, not repeated: GCCTAGCAC … GTCTTGATTCGCTTGACGCTGCTG
Target sequence (chain): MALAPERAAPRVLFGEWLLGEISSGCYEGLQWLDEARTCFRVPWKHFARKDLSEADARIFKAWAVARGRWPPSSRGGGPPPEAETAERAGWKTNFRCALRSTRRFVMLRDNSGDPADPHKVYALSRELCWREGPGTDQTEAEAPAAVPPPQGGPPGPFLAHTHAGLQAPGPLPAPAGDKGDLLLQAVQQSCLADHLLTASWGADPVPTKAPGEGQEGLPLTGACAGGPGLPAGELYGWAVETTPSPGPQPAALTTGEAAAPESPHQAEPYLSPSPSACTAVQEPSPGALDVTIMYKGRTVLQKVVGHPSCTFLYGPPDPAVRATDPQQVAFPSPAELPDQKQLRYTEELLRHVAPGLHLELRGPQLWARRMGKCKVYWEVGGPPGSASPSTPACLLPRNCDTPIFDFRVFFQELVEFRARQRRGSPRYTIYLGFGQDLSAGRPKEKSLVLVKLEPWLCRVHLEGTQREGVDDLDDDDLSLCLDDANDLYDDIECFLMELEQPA
Strand	fitted relative affinity
AGTGTCATGTTTCTATGGGCGTGCTAG	0.813 z-score
TTAGGTCTCGGTCTCGGTTCGTGCTAG	1.53 z-score
GACGATATCGGGTTTCGAAACGTGCTA	1.96 z-score
GACGGTATCCTTTTCCGGACGTGCTAG	1.17 z-score
GACGGACTGCTACGGCTGACGTGCTAG	-0.286 z-score
TTAGGTATCCTTGTCCTTTAGTGCTAG	0.982 z-score
TCTCTTCTGCTTCCTCAGGACGTGCTA	1.96 z-score
GACGGTCTCCTTCTCCTGGCGTGCTAG	0.81 z-score
TGATAAATCTTTGTTGGAGGGGTGCTA	-0.473 z-score
GTAGGTTTCGGTTCCGGTTAGTGCTAG	11.6 z-score

Block 2
Target: Hepatocyte nuclear factor 3-alpha (Foxa1, Mus musculus, UniProt P35582, residues 1-468, full length assumed)
Technique: EMSA with sequencing
Form: double-stranded DNA, one strand shown
Sample: in vitro
Tested at: 10 and 20 nM
Notes: whole designed probe, mean of two concentrations, ends assumed
Baseline: negative control set to 0
Direction: higher = stronger binding
Residues (chain): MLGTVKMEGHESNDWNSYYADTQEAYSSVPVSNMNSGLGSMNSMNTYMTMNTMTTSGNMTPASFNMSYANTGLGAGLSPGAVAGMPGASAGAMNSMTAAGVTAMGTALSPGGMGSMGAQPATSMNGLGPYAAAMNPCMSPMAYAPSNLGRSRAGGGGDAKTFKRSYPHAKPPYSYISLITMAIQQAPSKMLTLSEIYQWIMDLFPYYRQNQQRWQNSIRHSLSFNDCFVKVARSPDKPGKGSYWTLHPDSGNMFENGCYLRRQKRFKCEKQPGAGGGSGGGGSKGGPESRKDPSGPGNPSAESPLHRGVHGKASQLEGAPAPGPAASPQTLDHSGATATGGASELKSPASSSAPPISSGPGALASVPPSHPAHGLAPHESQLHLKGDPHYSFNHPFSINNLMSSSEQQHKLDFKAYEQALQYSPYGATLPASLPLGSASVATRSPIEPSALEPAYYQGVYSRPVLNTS
Strand	normalised bound fraction
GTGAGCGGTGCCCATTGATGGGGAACTGATGAAATGGTCTGGAAAGTCCTGGATTCCTTAAGAGTTGAGGGAAATCATCCTGCCTAAGTAAAGGAAACAATACCCATTGAATTGGCCCTGTTTACACTGCAGGGGATAAGCGCACGGAGGAGTTGTGCCTTGAGGTATTTTTGTCCCGCTTCAGCAAAAGCAGTGCTGTCTCTTTGATTTGTAAAGACTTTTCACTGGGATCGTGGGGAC	0.2 ratio
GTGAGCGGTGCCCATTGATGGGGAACATATCTGCTTTGCCTTATAAGATGAGAATTAAACATATTATTAGTTAAACTTGGCTAAATTCTATGCAGTAATAGATAACCCCAAAACCTCTATGTAATCTTAAAGTTATTCCCCGATAAAGCAATTTACTGTGGGCCTGGCAACTCTTTCATGCAGCCTTCTTGCTGATCACAGCTAATGGAGACATCGTCATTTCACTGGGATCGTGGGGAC	-0.0129 ratio
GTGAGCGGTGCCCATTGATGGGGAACCGGTGTAGGTTTATTGCCTACATTTATCATTGGAGAAAATGCTAAATTTCAGTTAGAGATTAGTGAAAATGAAATGTAATTTTCTCCTATTTTTGTTTGCCCTTTGGGATCCTGGATGAAGAGCCCTGCATTACACTGGGCACAGTGGCTCATGCCTGCAATCCCAGCTACTAAGGAGGCTGAGGTAGGAGGATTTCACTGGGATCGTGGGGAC	0.042 ratio
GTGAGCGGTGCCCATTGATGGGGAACATATCAATTTTAGAACCTAGTAATGAAGGACAATAAAATTATTTTAAAACAAATAACATTTGATGAATACATTAATTAGAAATGCTTCCCCATGTTTACATATAATTGACATACCCAAAAAACAAACAAACAATAACTAACTTATGGTAAGTGACATTTGCTGAAAAGCTGGTTAATGTATCTAAATTCCGAGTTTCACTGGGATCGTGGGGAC	0.535 ratio
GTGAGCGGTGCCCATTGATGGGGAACCAGTGCAGGTGACTAAGGATGACTAAGGACAGAGCAGGTGACTAAGGATGACTAAGGACTCTAAATATGTGAGTATAAAGGCTAGAAGGGGGTAGATTACTGAAACTAGGGCAAGGAGGTGTAAAGAATGAGGAAGTTAAACTTTAAAATGGAGAACAAAGTATAAGAAAGCTGAACATACTGACATACTGGTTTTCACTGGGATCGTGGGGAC	-0.0432 ratio
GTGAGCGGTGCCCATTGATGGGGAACGCTCAAAAAGCTCGGCTCAAAACTTCATTGTTTTAGGTATTTTGGGGGGAAACGAAGAGTTATCTCAGGAAGGGGGAAATATGTATAGAAAAGTAATCTTGAAAACATAAGAATATTTATTCAGTAGTTCATCAAATATATATCAAAACTCTACAATGCCCCCAGATACATATTCTGTACAAGAAGAAATACGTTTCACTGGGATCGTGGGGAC	0.153 ratio
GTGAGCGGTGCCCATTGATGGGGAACGCTGTCAGCCTCTTCTCCGTGGTGTTTTCTTGGAGCAAGTCCAAAGCAAAATCCTGATGCAAACAGTAACTATGGTTGTACATTGTTAAGTTGAAATTACTTTTTTGAATAGATAACGTTTACACGATCAAGATTCAGAATGTACCAAAAGTCCCCCAGTTGTCAGTTTTCCTCTCTGGAAATATACAGGAGGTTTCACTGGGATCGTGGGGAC	-0.0355 ratio

Block 3
Target: DBP, bZIP domain (human)
Technique: DHFR protein complementation
Sample: yeast
Notes: single substitutions, most at no-binding floor
Baseline: wild-type JUN-FOS pair
Direction: higher = stronger binding
Starting sequence: JUN, bZIP domain (human); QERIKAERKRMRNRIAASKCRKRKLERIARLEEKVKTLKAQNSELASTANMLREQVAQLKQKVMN; partner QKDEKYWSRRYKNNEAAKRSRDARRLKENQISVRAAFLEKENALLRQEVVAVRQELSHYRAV
Variant	binding fitness
V35N	-1.56 natural log
K36N	-1.55 natural log
V35W	-1.51 natural log
A46E	-1.54 natural log
E33F	-1.3 natural log
Q41T	-1.38 natural log

Further values, each from its own experiment
Molecule	target	assay	test system	setting	how to read	endpoint	value
PhoQ, residues 284 288 289 292 302 303 SLANIV	PhoP, residues 12 14 15 18 19 MHTVL (Escherichia coli, UniProt P23836)	Sort-seq, refers to: YFP reporter	E. coli	PhoQ-PhoP variant library, with: 10 µM Mg2+	baseline: high Mg2+ state, higher = stronger signaling	fold induction	8.28
